# Results of several laboratories.
# Parts stem from different laboratories: compare values within a part only. Substitutions count along the parent as printed.

# Block 1 — method: protein binding microarray; form: double-stranded DNA, one strand shown; sample: in vitro; concentration: not given; reference: not given; direction: higher = stronger binding
# Target: Histone acetyltransferase KAT6A, winged helix 1, GST fusion (KAT6A, Homo sapiens, UniProt Q92794, residues 1-85)
# Notes: 8-mer, flanks averaged, mean of 2 arrays, mostly near background
# Residues (chain): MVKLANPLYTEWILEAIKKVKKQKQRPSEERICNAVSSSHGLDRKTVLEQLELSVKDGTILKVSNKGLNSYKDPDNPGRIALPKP
Sequence,E-score
ACATAACC,-0.085
GACACGGC,0.348
ACCACCTG,-0.132
GTTATAAC,0.172
TGGCCGAA,0.0739
ATCTATAC,-0.0761
CTTCCTCA,-0.0854
CGACCAAA,-0.165
CAGGAGTA,-0.198
GACCGCTC,0.252
CTGCACGC,0.237
AGCAGGGG,-0.147
ACGGTAAC,0.271
CCTTTCAC,0.0111
GTCCATAA,-0.219
AGATACGC,0.262
CTTTCGGA,-0.0508
CGGACAAA,0.12
AACCCTGA,-0.06

# Block 2 — method: protein-binding microarray; form: double-stranded DNA, one strand shown; sample: in vitro; concentration: 940 nM top; notes: 60-bp whole probe; with: salmon DNA 0.4 mg/ml; reference: random background probes; direction: higher = stronger binding; shared flanks, not repeated: GCCTAGCAC … GTCTTGATTCGCTTGACGCTGCTG
# Target: Interferon regulatory factor 5, full length, phosphomimetic (IRF5, Homo sapiens, UniProt Q13568-2, residues 1-514, S451D/S453D/S456D/S462D)
Sequence,fitted relative affinity [z-score]
TTAGGTTCCGGACTGGGTTAGTGCTAG,0.292
GACGATATCGGAACTGGAGACGTGCTA,-0.0205
TTAGGTATCCTTCTCCGTTAGTGCTAG,0.715
CTCCTCTCTGGGTCAAAGGTGTGCTAG,-0.0698
GACGGTTTCCTTTGCCTGACGTGCTAG,1.45
TCAGCTTTGACTCTTTCACTGTGCTAG,0.377
TCAGATATCTTTTTCCTACTGTGCTAG,0.589
TTAGGATTCGACTATCGGTTAGTGCTA,0.842
TTAGGTTTAGACACTGGGTTAGTGCTA,-0.406
TTAGGACTGGGCCTCGGTTAGTGCTAG,-0.711
TTAGAACTGGAGACTGGATTAGTGCTA,-0.516
GACGATATGGGGACTGGAGACGTGCTA,-0.346
TTAGATATCAGTTGCGATTAGTGCTAG,0.973
GACGGTTCCGGTATCGGGACGTGCTAG,4.28
CATCATTGCCTGTTTTTCCCCGTGCTA,1.02
TTAGGTTTCTTTCTCCTTTAGTGCTAG,3.6
GTAGATATCAGTTTCGATTAGTGCTAG,8.19
GACGATTTCAGACTGGTGACGTGCTAG,-0.0239
GACGGTATCGAGACTGGGGACGTGCTA,4.33

# Block 3 — target: CCNA2, cyclin fold, Cln2 fusion (human); method: yeast growth competition, sequencing; sample: yeast; notes: weak parent motif; reference: not given; direction: higher = stronger binding
# Parent: MASTL docking peptide (human); PMIAKNLMCELDE
Change,normalised enrichment score
PMIAKNLMCALDE [E10A],0.724
PMIANNLMCELDE [K5N],-0.132
PMIAKNLMWELDE [C9W],-0.341
PMIAKNLGCELDE [M8G],-0.527
PMIAKNWMCELDE [L7W],-0.602
PMIMKNLMCELDE [A4M],-0.202
PEIAKNLMCELDE [M2E],-0.221
PMIAWNLMCELDE [K5W],-0.117
PMIAVNLMCELDE [K5V],-0.239
PMIAKNLMEELDE [C9E],-0.601
PMIAKHLMCELDE [N6H],0.0148
PMIAKNVMCELDE [L7V],-0.556
PMIAKNLMCLLDE [E10L],0.754
PMIAKNLMCELEE [D12E],-0.172
PMIAKNLMCELAE [D12A],0.473
PMAAKNLMCELDE [I3A],0.0427
PMIDKNLMCELDE [A4D],0.0694
PMIAKNSMCELDE [L7S],-0.253
PQIAKNLMCELDE [M2Q],0.296
PMIAKNLMCECDE [L11C],-0.316
PMIAKNIMCELDE [L7I],0.0504
PMIAKNLMKELDE [C9K],-0.0637
PMIAKNLMCHLDE [E10H],-0.187
PMIAKNLMCKLDE [E10K],0.422
PMIAKNLMCEADE [L11A],-0.262

# Block 4 — method: protein-binding microarray; form: double-stranded DNA, one strand shown; sample: in vitro; concentration: 0.8 µM; notes: whole 60-bp probe, no competitor; direction: higher = stronger binding; shared flanks, not repeated: … GTCTTGATTCGCTTGACGCTGCTG
# Target: Centromere-binding protein 1, full length, N-terminal tag (CBF1, Saccharomyces cerevisiae, UniProt P17106, residues 1-351)
# Chain of UniProt P17106 (whole entry, looked up): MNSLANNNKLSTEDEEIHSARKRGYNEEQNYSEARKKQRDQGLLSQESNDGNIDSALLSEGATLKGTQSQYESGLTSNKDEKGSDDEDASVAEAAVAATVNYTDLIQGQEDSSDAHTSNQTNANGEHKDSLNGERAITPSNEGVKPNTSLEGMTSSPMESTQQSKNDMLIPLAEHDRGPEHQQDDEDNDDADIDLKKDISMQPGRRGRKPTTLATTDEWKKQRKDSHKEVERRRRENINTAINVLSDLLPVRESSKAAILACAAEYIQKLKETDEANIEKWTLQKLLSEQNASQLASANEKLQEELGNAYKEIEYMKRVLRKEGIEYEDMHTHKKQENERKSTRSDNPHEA
Sequence,fluorescence intensity [a.u.]
CTAGCGTCGTTTGCTTACGTGATTGTCATGTGCTTC,1250
CTAAATGAAGTCTTGCGCACGCAATTGGTTGTATTC,533
CTAAACAGGCATATACACACGCACTCTCTTTTTTTC,533
CCTAACTACTATAATCAGGAGGCATAGCTTCGTACA,524
GAACTAAAGAACGTGCATCAGAGAAGAATGACCTAG,1030
GAAATGAATACTGATCATGTGAAACATGATTAATAG,2720
CTAATCACCTAGCATCATGCTCTTCATACATGCTTC,533
CTATATAATACTAATCACGCATTGCAACTTCACTTC,737
GAATCAATTGATTACCACATGCAACCCCATTGATAG,690
CTAACACTTGAAACGCACGATTTTTTCAAGAATTTC,523
CTAGCACTTGAGCACCTCATGCACAGCAATAACTTC,541
CTAATTTATCTTTTTCACATGAGATATTTTTACTTC,600
CTATTCATTCTGTGAAATATCACGTGGACAAATTTC,16900
GAAAGAAGAATTGGACATCAGAATACTTTTCTCTAG,516
CTAAAAAATCCAGCTGATGTTTGTTTCCTTTTCTTC,492
GAATAACTTAAAGGTGATGAAATGTGGCGTTCTTAG,487
GAATCATACTTAATACACGTTTTTTAAGATTTATAG,546
GAATATATATTAATGCACATGGCTCTGTTGTATTAG,642
TGTACGAAGCTATATGTGGTCGCTATAGTAGTTAGG,491

# Excerpt of the above (block 3):
Change,normalised enrichment score
PMAAKNLMCELDE [I3A],0.0427
PMIDKNLMCELDE [A4D],0.0694
PMIAKNSMCELDE [L7S],-0.253
PQIAKNLMCELDE [M2Q],0.296
PMIAKNLMCECDE [L11C],-0.316
PMIAKNIMCELDE [L7I],0.0504
PMIAKNLMKELDE [C9K],-0.0637
